# Published values gathered from unrelated publications.
# ± marks the error that the study gave.
# TDP1: Tyrosyl-DNA phosphodiesterase 1 (TDP1, Homo sapiens, UniProt Q9NUW8)
# UniProt Q9NUW8, sequence (whole entry, looked up): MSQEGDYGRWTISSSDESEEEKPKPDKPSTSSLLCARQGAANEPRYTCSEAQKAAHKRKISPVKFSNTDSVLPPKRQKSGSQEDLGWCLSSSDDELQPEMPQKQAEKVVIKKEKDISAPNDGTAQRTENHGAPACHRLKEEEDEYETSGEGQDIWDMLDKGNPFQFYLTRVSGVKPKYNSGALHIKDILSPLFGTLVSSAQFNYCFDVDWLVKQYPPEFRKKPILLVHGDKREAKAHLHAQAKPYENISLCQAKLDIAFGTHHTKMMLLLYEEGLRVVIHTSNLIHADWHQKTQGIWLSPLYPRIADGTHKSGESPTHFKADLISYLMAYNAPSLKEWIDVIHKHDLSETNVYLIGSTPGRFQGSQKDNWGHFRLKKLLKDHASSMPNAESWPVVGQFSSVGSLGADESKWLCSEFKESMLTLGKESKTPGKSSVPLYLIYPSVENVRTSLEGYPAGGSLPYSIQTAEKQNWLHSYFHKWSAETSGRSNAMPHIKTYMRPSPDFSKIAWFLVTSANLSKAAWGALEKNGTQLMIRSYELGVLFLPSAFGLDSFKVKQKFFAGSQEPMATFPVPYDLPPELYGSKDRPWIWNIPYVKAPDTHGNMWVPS
# UniProt P29376, sequence (whole entry, looked up): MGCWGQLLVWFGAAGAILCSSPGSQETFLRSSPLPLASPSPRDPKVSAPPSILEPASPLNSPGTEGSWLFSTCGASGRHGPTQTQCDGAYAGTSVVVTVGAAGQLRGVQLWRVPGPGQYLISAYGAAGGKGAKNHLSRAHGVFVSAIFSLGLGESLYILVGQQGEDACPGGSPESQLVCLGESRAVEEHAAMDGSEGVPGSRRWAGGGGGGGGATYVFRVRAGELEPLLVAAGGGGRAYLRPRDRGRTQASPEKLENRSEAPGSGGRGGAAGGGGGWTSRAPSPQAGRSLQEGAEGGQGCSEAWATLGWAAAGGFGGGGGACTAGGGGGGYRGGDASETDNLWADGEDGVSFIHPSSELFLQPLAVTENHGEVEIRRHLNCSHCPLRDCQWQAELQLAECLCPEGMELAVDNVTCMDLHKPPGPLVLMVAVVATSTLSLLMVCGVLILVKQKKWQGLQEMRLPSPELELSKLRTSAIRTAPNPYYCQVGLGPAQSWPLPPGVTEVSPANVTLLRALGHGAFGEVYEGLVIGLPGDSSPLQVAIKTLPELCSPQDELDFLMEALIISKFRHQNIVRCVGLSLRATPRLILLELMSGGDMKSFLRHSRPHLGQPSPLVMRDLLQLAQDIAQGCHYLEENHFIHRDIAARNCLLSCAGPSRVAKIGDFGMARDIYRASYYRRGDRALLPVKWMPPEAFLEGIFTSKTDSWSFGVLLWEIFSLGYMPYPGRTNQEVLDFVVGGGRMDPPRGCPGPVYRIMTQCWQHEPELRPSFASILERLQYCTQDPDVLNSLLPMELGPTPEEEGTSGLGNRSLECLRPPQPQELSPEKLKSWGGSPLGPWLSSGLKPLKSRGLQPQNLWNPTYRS
Structure (SMILES),tested on,assay,test system,conditions,how to read,endpoint,result
Cc1noc(-c2ccc(C=NOCc3ccc(-c4nc5cc(-c6ccccc6)ccn5c4Nc4ccc(C(=O)O)cc4)cc3)cc2)n1,TDP1,"enzyme activity, inhibitor",,100 µM,,inhibition,98.5%
Cc1ccc(C(C)C)cc1.Cc1ccc(C(C)C)cc1.Cc1ccc(C(C)C)cc1.Cc1ccc(C(C)C)cc1.O=S(=O)(O)C(F)(F)F.O=S(=O)(O)C(F)(F)F.O=S(=O)(O)C(F)(F)F.O=S(=O)(O)C(F)(F)F.c1ccc2c3c4ccccc4c(c2c1)-c1cn(nn1)-c1cc[n+](cc1)[Ru-]1[O]c2c4ccccc4c4c5c(c6ccccc6c(c25)=[O+]1)=[O+][Ru-]([O]4)[n+]1ccc(cc1)-n1cc(nn1)-c1c2ccccc2c(c2ccccc12)-c1cn(nn1)-c1cc[n+](cc1)[Ru-]1[O]c2c4ccccc4c4c5c(c6ccccc6c(c25)=[O+]1)=[O+][Ru-]([O]4)[n+]1ccc(cc1)-n1cc-3nn1,AGS,"cell growth, MTT",,"24 h, 20 µM preincubated in medium 48 h at 37 °C",,IC50,17200 ± 1100 nM
CCN(C(=O)c1cc(F)ccc1Oc1nncnc1N1CCC2(C1)CN(C(CCCN(C)CCOC)C(C)C)C2)C(C)C (stereo not shown),"MOLM-14 (KMT2A-AF9, FLT3-ITD)","cell growth, live-cell imaging, spheroid-like",,"concentration not given, 8 days",,IC50,> 1000 nM
Cc1nn(-c2cccc(N)c2)c(=O)c2cnc(Nc3ccc(N4CCNCC4)cc3)nc12,"LTK (Homo sapiens, UniProt P29376)","enzyme activity, inhibitor",,,,IC50,> 10000 nM
CNS(=O)(=O)Nc1nccc(Cc2c(C)c3ccc(Oc4ncccc4F)cc3oc2=O)c1F,LS-411N,cell viability,,7 days,,IC50,124 nM
C=CC(=O)Nc1cccc(Cn2ncc3cnc(Nc4cnn(CCOC)c4)nc32)c1,human FLT3(ITD),KINOMEscan,,100 nM,relative to: control,binding,38%
COc1cc(C(=O)N/N=C/c2cccc3ccccc23)cc(OC)c1OC,"N6/ADR, multidrug resistant",MTT,,48 h,,IC50,85.8 nM
C=CC(=O)N1CCCC(n2c(=O)c3ncccc3n(Cc3ccc(Oc4ccccc4)cc3)c2=O)C1 (stereo not shown),DOHH-2,"cell growth or viability, MTT",,72 h,,IC50,2000 nM
CN1CCC(N[C@@H]2CCc3[nH]c4c(C(N)=O)ccc(-c5ccccc5Cl)c4c3C2)CC1,A549 parental,cell proliferation,,,,IC50,36.4 nM
N#Cc1cccc(N2Cc3cnn(Cc4ccc(F)cc4)c3C2)c1,HEK293 expressing GluA1 and GluA2,"glutamate excitotoxic cell death, CellTox Green",,together with: glutamate,,IC50,291 nM
CN1CC[C@@H](COc2cnc(C#N)cc2-c2ccn3nc(NC(=O)C4CC4)cc3c2)C1,wild-type mouse BMDC,TNF release,,"4 h, together with: LPS",,IC50,850 nM
Nc1ncc(-c2cc(-c3cnn(CC(F)(F)F)c3)ncc2F)nc1C(=O)NC1CNCC(F)C1 (stereo not shown),CDC2L2,KINOMEscan,,1 µM,relative to: DMSO control,remaining binding,100%
NCCOc1cc(NC(=O)c2cc(Cl)cc(C(=O)Nc3cc(OCCN)c4ccccc4n3)n2)nc2ccccc12,HT-1080,"cell growth or viability, ATP luminescence",,72 h,,IC50,1800 nM
Cc1sc2c(c1C)C(c1ccc(Cl)cc1)=N[C@@H](CC(=O)NCCN(C)CCCCNC(=O)CCCCOc1cccc3c1C(=O)N([C@H]1CCC(=O)NC1=O)C3=O)c1nnc(C)n1-2,AGS,"cell growth or viability, CCK-8",,72 h,,IC50,4710 nM
O=C(NCc1cc(F)cc(F)c1)[C@@]1(O)CCN(c2ccc3[nH]ccc3c2)C1=O,OVXF1353 ovarian tumour,"colony formation, soft agar clonogenic",,,,IC50,> 10000 nM
CC(C)c1ccc(N(C)c2ccc3c(c2)OCC[C@H]3CNc2cnccc2C(=O)O)cc1,HCC95,"cell growth or viability, ATP luminescence",,7 days,,IC50,4.4 nM
COC(=O)c1cc(O)c(=O)c(O)cc1C,HepDES19,"cell growth or viability, MTS",,72 h,,CC50,> 100000 nM
CN1CCCNC(=O)c2cccc(c2)C(=O)NCCCN(C)CCCNc2cccc3c2C(=O)c2cccc(c2C3=O)NCCC1,SAS,"RNA-Seq, refers to: PDCD11 mRNA",,"1 µM, 6 h",relative to: untreated cells,log2 fold change,-0.698
Cn1ncc2cc(-c3cncc(Cl)c3N3CCC4(CCNC4=O)CC3)ccc21,LS174T,"gene expression, microarray, refers to: TNFRSF12A (FN14) mRNA",,"concentration not given, 24 h",relative to: untreated cells,log2 fold change,-2.63
CN1CCN(C(=O)c2ccnc(N3Cc4cnn(Cc5ccc(F)cc5)c4C3)n2)CC1,HEK293 expressing GluA1 and GluA2,"glutamate excitotoxic cell death, CellTox Green",,together with: glutamate,,IC50,41 nM
O=c1cc(-c2ccccc2)oc2cc(O)cc([O][Ga+][O]c3cc(O)cc4oc(-c5ccccc5)cc(=O)c34)c12,LO2,"cell viability, MTT",,,,IC50,> 200000 nM
CN(C(=O)c1ccnc(N2Cc3cn(Cc4ccc(F)cc4)nc3C2)n1)C1CCCCC1,HEK293 expressing GluA1 and GluA2,"glutamate excitotoxic cell death, CellTox Green",,together with: glutamate,,IC50,87 nM
O=C1CS/C(=N\N=C\c2cccc3cc4ccccc4nc23)N1c1ccc(F)cc1,SK-BR-3,"cell growth or viability, MTT",,48 h,,IC50,> 50000 nM
CN(C(=O)c1cncc(N2Cc3cnn(Cc4ccc(F)cc4)c3C2)n1)C1CCCC1,HEK293 expressing GluA1 and GluA2,"glutamate excitotoxic cell death, CellTox Green",,together with: glutamate,,IC50,54 nM
Cc1cnc(Nc2ccc3c(c2)CCN(C(=O)/C=C/C(=O)c2ccc(Cl)cc2)C3)nc1-c1cnn(C(C)C)c1,HCC70,"cell growth or viability, MTT",,48 h,,IC50,360 nM
Cc1ncsc1-c1ccc(C(C)NC(=O)C2CC(O)CN2C(=O)C(NC(=O)CCCCCCCCCCN2CCCC(Nc3ncc(Cl)c(Nc4ccccc4S(=O)(=O)C(C)C)n3)C2)C(C)(C)C)cc1 (stereo not shown),22Rv1,"RNA-seq, refers to: MYNN mRNA",,concentration not given,relative to: DMSO,log2 fold change,-1.04
COc1cc(-c2cc(C(C)=O)n3ccccc23)c(OC)cc1CN1CC(O)C1,MV4-11,"cell growth or viability, ATP luminescence",,,,IC50,4300 nM
Cn1ncc(-c2ccc3c(=O)[nH]nc(CN)c3c2)c1-c1c(F)c(Cl)cc(OC2CC2)c1C#N,HCC95,"cell viability, inhibitor, CellTiter-Glo",,"120 h, baseline-subtracted",,IC50,2210 nM
CC(CCC(=O)OCc1cccc(CN(C(=O)OCc2ccc(B3OC(C)(C)C(C)(C)O3)cc2)[c-]2cccc2)c1)C1CCC2C3C(=O)CC4CC(=O)CCC4(C)C3CC(=O)C12C.[Fe+2].c1cc[cH-]c1 (stereo not shown),BL2,"cell growth or viability, MTT",,48 h,,IC50,5000 nM
CCn1ccc(C2CCCN2S(=O)(=O)c2cc(C)c(C)cc2C)n1 (stereo not shown),human PBMC monocytes,phagocytosis of anti-D RBCs,,,,IC50,> 100000 nM
O=C(NC1CCCCC1)c1ccnc(N2Cc3cn(Cc4ccc(F)cc4)nc3C2)n1,HEK293 expressing GluA1 and GluA2,"glutamate excitotoxic cell death, CellTox Green",,together with: glutamate,,IC50,66 nM
CO[C@@H](C[C@H]1C(C)=CC[C@@H]2[C@]3(C)C[C@H](O[C@@H]4O[C@@H](C)[C@H](OC(=O)c5cccc(O)c5)[C@@H](O[C@@H]5O[C@H](CO)[C@@H](O)[C@H](O)[C@H]5NC(C)=O)[C@H]4O)[C@@H](O)C(C)(C)[C@H]3CC[C@]21C)[C@H](N)C(=O)O,THP-29,"cell viability, CCK-8",,72 h,,IC50,> 10000 nM
CCSc1c(C=NOCc2ccc(-c3nc4cc(-c5ccccc5)ccn4c3Nc3ccc(C(=O)O)cc3)cc2)c2ccccc2n1C,TDP1,"enzyme activity, inhibitor",,"100 µM, unpurified compound",,inhibition,17.3%
Cc1ccc(C(C)C)cc1.Cc1ccc(C(C)C)cc1.Cc1ccc(C(C)C)cc1.Cc1ccc(C(C)C)cc1.O=S(=O)(O)C(F)(F)F.O=S(=O)(O)C(F)(F)F.O=S(=O)(O)C(F)(F)F.O=S(=O)(O)C(F)(F)F.c1ccc2c3c4ccccc4c(c2c1)-c1cn(nn1)-c1cc[n+](cc1)[Ru-]1[O]C2=[O+][Ru-]([O]C2=[O+]1)[n+]1ccc(cc1)-n1cc(nn1)-c1c2ccccc2c(c2ccccc12)-c1cn(nn1)-c1cc[n+](cc1)[Ru-]1[O]C2=[O+][Ru-]([O]C2=[O+]1)[n+]1ccc(cc1)-n1cc-3nn1,AGS,"cell growth or viability, MTT",,24 h,,IC50,10800 nM
CCn1c(-c2ccccc2)cs/c1=N/N=C(\C)c1c(O)c2ccccc2oc1=O,human Skin fibroblast,"cell growth or viability, MTT",,48 h,,IC50,> 100000 nM
COc1cc(-c2cc(C(C)=O)n3ccccc23)c(OC)cc1C(=O)N(C)C,MV4-11,"cell growth or viability, ATP luminescence",,,,IC50,2550 nM
NC(=O)c1ccc(-c2ccccc2Cl)c2c3c([nH]c12)CCC(N)C3 (stereo not shown),"K562/DOX, doxorubicin-resistant","cell growth, CellTiter-Glo",,96 h,,IC50,21.2 nM
Cc1ccc(Cn2cc3c(n2)CN(c2cccc(C(=O)N(C)C)c2)C3)cc1,HEK293 expressing GluA1 and GluA2,"glutamate excitotoxic cell death, CellTox Green",,together with: glutamate,,IC50,656 nM
CCCN1C(=O)CS/C1=N\N=C\c1cccc2cc3ccccc3nc12,SK-BR-3,"cell growth or viability, MTT",,48 h,,IC50,> 50000 nM
Cc1c(C)c2cccnc2c2ncccc12.Cc1ccc2c(Cl)cc(Cl)c([O-])c2n1.Cc1ccc2c(Cl)cc(Cl)c([O-])c2n1.[Co+2],HepG2,"cell growth or viability, MTT",,48 h,,IC50,4120 nM
O=C(NC1CCCCC1)c1cccc(N2Cc3cn(Cc4ccc(F)cc4)nc3C2)c1,HEK293 expressing GluA1 and GluA2,"glutamate excitotoxic cell death, CellTox Green",,together with: glutamate,,IC50,57 nM
CCOc1cncc(-c2ccc(NC(=O)C3(c4ccnc(NS(=O)(=O)C5CC5)n4)CCOCC3)nc2)n1,MSTO-211H,"cell proliferation, CellTiter-Glo",,"72 h, Mesothelioma cancer",,IC50,53 nM
CCN(CC)Cc1c(OC)cc(-c2cc(C(C)=O)n3ccccc23)cc1OC,MV4-11,"cell growth or viability, ATP luminescence",,,,IC50,1360 nM
COC1CN([C@H]2CC[C@H]([C@@]3(C)Oc4c(Cl)cc(C(=O)NCc5c(SC)cc(C)[nH]c5=O)c(C)c4O3)CC2)C1,,"RNA-seq, refers to: ACKR2","human, whole blood","dose not given, 24 h",relative to: pretreatment baseline,log2 fold change,3.41
O=C(O)c1cncc(N2Cc3cnn(Cc4ccc(F)cc4)c3C2)n1,HEK293 expressing GluA1 and GluA2,"glutamate excitotoxic cell death, CellTox Green",,together with: glutamate,,IC50,> 5000 nM
CCCN1C(=O)/C(=C/C(=O)OCC)S/C1=N\N=C\c1cccc2cc3ccccc3nc12,SK-BR-3,"cell growth or viability, MTT",,48 h,,IC50,> 50000 nM

# A few entries again:
Structure (SMILES),tested on,assay,test system,conditions,how to read,endpoint,result
Cc1c(C)c2cccnc2c2ncccc12.Cc1ccc2c(Cl)cc(Cl)c([O-])c2n1.Cc1ccc2c(Cl)cc(Cl)c([O-])c2n1.[Co+2],HepG2,"cell growth or viability, MTT",,48 h,,IC50,4120 nM
O=C(NC1CCCCC1)c1cccc(N2Cc3cn(Cc4ccc(F)cc4)nc3C2)c1,HEK293 expressing GluA1 and GluA2,"glutamate excitotoxic cell death, CellTox Green",,together with: glutamate,,IC50,57 nM
CCOc1cncc(-c2ccc(NC(=O)C3(c4ccnc(NS(=O)(=O)C5CC5)n4)CCOCC3)nc2)n1,MSTO-211H,"cell proliferation, CellTiter-Glo",,"72 h, Mesothelioma cancer",,IC50,53 nM
CCN(CC)Cc1c(OC)cc(-c2cc(C(C)=O)n3ccccc23)cc1OC,MV4-11,"cell growth or viability, ATP luminescence",,,,IC50,1360 nM
COC1CN([C@H]2CC[C@H]([C@@]3(C)Oc4c(Cl)cc(C(=O)NCc5c(SC)cc(C)[nH]c5=O)c(C)c4O3)CC2)C1,,"RNA-seq, refers to: ACKR2","human, whole blood","dose not given, 24 h",relative to: pretreatment baseline,log2 fold change,3.41
O=C(O)c1cncc(N2Cc3cnn(Cc4ccc(F)cc4)c3C2)n1,HEK293 expressing GluA1 and GluA2,"glutamate excitotoxic cell death, CellTox Green",,together with: glutamate,,IC50,> 5000 nM
CCCN1C(=O)/C(=C/C(=O)OCC)S/C1=N\N=C\c1cccc2cc3ccccc3nc12,SK-BR-3,"cell growth or viability, MTT",,48 h,,IC50,> 50000 nM
